Measured values gathered from unrelated publications.
Lines come from different studies, so protocols differ.

`N.N.O=C([O-])C1(C(=O)[O-])CCC1.[Pt+2]` has a Cmax of 40000 ng/mL (ICP-MS platinum, item: platinum; human patients, plasma ultrafiltrate; dose not given, carboplatin target AUC 4, cycle 1 day 1).
For `N.N.O=C([O-])C1(C(=O)[O-])CCC1.[Pt+2]`, the Cmax was 17100 ng/mL (item: unbound platinum; human, plasma ultrafiltrate; intravenous, AUC 3, median, dose level -2).
`OCc1ncc2n1-c1ccc(Cl)cc1C(c1ccccc1F)=NC2` has a Cmax of 15.8 ng/mL (human, plasma; oral, 7.5 mg of midazolam, day 19, arithmetic mean, no amenamevir).
`O[C@H]1CCCN[C@@H]1CCCn1cnc2c(Cl)c(Cl)ccc21` has a Cmax of 284 ng/mL (human, UGT2B7 ND+DD phenotype, plasma; oral, 150 mg twice daily, steady state).
`C[C@H](NC(=O)c1c(C(F)F)nn(C)c1Oc1cccc(C(F)(F)F)c1)c1ccc(C(=O)O)cc1` gave a Cmax of 1520 ng/mL (human, plasma; 500 mg, cycle 1 day 8, mean).
For `CC(=O)c1c(C)c2cnc(Nc3ccc(C4CCN(CCS(C)(=O)=O)CC4)cn3)nc2n(C2CCCC2)c1=O`, the Cmax was 227 ng/mL (human patients, plasma; oral, 100 mg twice daily, day 1 single dose, added: fulvestrant).
With `Cn1ncc(-c2nc(N[C@H]3CC[C@H](N)CC3)ncc2Cl)c1CC1CC1` the Cmax was 155 ng/mL (human patients, plasma; oral, 42 mg, day 5).
With `O=c1ccc2ncc(=O)n3c2n1C[C@H]3CN1CCC(NCc2cc3c(cn2)OCCC3)CC1` the Cmax was 5750 ng/mL (healthy human volunteers, plasma; oral, dose not given, arithmetic mean, added: itraconazole).

For quick reference, copied from above:
`OCc1ncc2n1-c1ccc(Cl)cc1C(c1ccccc1F)=NC2` has a Cmax of 15.8 ng/mL (human, plasma; oral, 7.5 mg of midazolam, day 19, arithmetic mean, no amenamevir).
